Assay results of several laboratories.
Every numbered part comes from another study and shows a few of its results, in no order. Values joined by “and” are separate records of one study, mostly repeats; a detail may differ. pEC50: −log10 of the molar value.
UniProt P28482, sequence (whole entry, looked up): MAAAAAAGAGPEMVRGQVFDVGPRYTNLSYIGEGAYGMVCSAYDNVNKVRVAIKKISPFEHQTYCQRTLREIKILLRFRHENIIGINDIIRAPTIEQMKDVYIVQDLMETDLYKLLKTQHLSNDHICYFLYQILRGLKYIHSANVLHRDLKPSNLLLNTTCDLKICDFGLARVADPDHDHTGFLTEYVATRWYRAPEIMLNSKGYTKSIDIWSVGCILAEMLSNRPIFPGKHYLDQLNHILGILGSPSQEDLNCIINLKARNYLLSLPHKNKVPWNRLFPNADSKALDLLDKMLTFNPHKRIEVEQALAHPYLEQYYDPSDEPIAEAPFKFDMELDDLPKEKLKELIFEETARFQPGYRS
UniProt P50613, sequence (whole entry, looked up): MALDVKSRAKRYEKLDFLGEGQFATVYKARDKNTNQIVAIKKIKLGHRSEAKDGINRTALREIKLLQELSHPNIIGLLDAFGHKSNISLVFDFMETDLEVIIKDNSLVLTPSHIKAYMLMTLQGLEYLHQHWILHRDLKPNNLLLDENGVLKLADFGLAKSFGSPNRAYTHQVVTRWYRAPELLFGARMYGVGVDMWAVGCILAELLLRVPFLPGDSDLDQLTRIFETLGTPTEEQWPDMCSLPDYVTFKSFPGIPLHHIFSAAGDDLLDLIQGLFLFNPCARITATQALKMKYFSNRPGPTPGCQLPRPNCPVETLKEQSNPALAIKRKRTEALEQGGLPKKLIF
UniProt P08922, sequence (whole entry, looked up): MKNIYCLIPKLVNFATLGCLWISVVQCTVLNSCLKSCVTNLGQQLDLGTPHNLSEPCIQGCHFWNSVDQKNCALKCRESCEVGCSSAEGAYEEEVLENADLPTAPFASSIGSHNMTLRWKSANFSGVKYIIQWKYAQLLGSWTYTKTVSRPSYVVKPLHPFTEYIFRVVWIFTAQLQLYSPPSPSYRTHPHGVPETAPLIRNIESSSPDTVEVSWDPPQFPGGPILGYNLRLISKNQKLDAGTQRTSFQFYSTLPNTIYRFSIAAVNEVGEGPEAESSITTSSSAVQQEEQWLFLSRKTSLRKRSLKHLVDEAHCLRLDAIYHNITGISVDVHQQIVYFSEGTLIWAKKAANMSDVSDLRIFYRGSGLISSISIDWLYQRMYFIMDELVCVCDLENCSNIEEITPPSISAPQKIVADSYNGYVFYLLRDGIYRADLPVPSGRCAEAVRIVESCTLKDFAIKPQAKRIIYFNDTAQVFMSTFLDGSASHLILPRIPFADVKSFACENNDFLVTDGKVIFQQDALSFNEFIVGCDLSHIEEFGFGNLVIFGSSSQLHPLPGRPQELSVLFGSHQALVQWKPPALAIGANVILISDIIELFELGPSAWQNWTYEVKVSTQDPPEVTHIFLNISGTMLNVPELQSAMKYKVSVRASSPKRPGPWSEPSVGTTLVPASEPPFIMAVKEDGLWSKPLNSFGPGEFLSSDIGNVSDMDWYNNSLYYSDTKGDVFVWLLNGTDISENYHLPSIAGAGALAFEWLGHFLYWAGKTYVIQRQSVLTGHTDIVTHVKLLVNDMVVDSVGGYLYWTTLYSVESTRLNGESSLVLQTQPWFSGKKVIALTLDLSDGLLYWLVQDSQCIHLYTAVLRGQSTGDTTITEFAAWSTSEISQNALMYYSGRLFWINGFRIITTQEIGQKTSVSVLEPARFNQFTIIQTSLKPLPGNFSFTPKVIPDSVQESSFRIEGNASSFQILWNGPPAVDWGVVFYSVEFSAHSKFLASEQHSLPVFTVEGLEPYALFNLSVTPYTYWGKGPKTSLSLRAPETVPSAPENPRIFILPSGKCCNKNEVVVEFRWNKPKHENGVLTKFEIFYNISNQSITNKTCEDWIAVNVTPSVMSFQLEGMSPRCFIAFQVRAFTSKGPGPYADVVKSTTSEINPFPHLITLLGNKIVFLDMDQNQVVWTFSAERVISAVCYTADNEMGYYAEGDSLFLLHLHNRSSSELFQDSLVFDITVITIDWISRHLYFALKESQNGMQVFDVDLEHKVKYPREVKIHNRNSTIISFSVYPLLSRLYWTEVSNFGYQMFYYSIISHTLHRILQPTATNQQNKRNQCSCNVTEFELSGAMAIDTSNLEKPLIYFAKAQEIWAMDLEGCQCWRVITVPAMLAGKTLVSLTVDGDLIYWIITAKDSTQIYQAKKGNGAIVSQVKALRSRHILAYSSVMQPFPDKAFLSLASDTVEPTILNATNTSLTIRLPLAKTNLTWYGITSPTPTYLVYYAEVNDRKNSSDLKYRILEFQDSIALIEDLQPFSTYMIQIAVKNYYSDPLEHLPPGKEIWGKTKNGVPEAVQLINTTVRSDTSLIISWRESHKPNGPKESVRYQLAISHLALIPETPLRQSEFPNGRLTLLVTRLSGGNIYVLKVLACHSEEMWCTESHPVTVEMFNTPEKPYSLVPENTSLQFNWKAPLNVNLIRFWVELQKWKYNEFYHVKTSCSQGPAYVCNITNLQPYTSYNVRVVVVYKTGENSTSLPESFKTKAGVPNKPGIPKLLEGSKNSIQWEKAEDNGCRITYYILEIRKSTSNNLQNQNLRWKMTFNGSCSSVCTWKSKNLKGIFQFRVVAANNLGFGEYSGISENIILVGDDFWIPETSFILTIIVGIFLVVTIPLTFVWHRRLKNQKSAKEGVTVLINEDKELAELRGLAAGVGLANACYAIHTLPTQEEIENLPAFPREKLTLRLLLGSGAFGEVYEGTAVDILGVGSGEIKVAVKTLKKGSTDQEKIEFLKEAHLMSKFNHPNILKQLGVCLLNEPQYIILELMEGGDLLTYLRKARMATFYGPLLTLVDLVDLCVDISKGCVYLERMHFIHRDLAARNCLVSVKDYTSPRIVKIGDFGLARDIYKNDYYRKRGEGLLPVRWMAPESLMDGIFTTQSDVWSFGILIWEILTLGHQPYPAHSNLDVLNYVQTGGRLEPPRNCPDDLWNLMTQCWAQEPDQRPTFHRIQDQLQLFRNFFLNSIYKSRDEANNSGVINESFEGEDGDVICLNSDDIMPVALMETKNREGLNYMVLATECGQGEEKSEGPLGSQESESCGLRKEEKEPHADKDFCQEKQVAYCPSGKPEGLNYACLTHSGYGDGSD
UniProt Q9Y2U5, sequence (whole entry, looked up): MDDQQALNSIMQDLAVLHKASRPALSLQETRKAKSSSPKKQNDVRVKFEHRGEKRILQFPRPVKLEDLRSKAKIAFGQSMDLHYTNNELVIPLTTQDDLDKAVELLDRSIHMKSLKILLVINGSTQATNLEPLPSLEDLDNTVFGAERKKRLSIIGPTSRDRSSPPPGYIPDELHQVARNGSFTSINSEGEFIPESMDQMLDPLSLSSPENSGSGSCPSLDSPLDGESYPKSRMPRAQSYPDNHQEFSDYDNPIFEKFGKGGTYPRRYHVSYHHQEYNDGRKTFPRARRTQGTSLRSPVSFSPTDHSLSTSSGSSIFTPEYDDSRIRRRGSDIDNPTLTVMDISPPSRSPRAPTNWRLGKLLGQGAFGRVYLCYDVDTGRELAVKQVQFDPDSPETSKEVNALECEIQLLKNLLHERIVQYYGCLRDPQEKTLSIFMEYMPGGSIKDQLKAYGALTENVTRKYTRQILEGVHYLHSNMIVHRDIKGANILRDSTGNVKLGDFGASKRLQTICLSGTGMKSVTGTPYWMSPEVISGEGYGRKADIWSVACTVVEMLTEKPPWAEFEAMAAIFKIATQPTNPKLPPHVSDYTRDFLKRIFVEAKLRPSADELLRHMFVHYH
UniProt P27361, sequence (whole entry, looked up): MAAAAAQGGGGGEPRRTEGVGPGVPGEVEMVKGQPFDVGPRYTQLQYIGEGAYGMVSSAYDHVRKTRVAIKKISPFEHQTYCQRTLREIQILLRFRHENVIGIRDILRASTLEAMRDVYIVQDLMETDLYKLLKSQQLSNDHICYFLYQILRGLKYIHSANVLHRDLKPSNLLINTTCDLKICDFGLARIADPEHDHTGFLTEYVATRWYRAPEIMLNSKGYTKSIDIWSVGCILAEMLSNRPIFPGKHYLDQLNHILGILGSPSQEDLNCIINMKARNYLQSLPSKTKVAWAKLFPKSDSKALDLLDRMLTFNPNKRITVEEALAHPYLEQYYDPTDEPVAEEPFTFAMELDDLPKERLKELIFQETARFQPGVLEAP
UniProt O14965, sequence (whole entry, looked up): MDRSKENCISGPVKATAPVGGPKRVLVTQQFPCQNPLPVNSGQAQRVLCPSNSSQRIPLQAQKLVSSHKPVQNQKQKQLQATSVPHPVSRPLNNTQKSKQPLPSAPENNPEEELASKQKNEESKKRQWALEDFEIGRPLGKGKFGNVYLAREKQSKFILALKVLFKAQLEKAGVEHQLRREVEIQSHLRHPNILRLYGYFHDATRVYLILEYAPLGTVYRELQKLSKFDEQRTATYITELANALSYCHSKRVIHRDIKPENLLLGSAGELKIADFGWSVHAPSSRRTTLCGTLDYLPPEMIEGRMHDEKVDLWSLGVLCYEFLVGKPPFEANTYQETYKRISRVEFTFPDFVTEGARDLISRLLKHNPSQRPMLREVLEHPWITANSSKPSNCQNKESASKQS

Sample 1 — read-out: enzyme activity; action: inhibitor; tested at: 0.5 µM; reference: control
Structure (SMILES): COc1cc2ncnc(Nc3ccc(OCc4ccccc4)cc3)c2cc1OC
target	remaining activity [%]
Mitogen-activated protein kinase 10 (MAPK10, Homo sapiens, UniProt P53779)	84.5
Homeodomain-interacting protein kinase 3 (HIPK3, Homo sapiens, UniProt Q9H422)	85.3
Rho-associated protein kinase 2 (ROCK2, Homo sapiens, UniProt O75116)	96
Mitogen-activated protein kinase kinase kinase 8 (MAP3K8, Homo sapiens, UniProt P41279)	90.1
Calcium/calmodulin-dependent protein kinase type 1G (CAMK1G, Homo sapiens, UniProt Q96NX5)	97.1
Cyclin-dependent kinase 7 (CDK7, Homo sapiens, UniProt P50613)	98.8
Serine/threonine-protein kinase BRSK1 (BRSK1, Homo sapiens, UniProt Q8TDC3)	103
Myotonin-protein kinase (DMPK, Homo sapiens, UniProt Q09013)	104
Protein-tyrosine kinase 2-beta (PTK2B, Homo sapiens, UniProt Q14289)	99.8
Casein kinase II subunit alpha' (CSNK2A2, Homo sapiens, UniProt P19784)	95.3
Serine/threonine-protein kinase D1 (PRKD1, Homo sapiens, UniProt Q15139)	101
Dual specificity tyrosine-phosphorylation-regulated kinase 4 (DYRK4, Homo sapiens, UniProt Q9NR20)	97.6
NT-3 growth factor receptor (NTRK3, Homo sapiens, UniProt Q16288)	93.8
Epidermal growth factor receptor (EGFR, Homo sapiens, UniProt P00533)	21.3
Cyclin-dependent kinase 2, with cyclin A (CDK2, Homo sapiens, UniProt P24941)	100
Serine/threonine-protein kinase N2 (PKN2, Homo sapiens, UniProt Q16513)	94.1
Aurora kinase A (AURKA, Homo sapiens, UniProt O14965)	91.3
Calcium/calmodulin-dependent protein kinase type 1D (CAMK1D, Homo sapiens, UniProt Q8IU85)	104
G protein-coupled receptor kinase 5 (GRK5, Homo sapiens, UniProt P34947)	105
Serine/threonine-protein kinase Nek9 (NEK9, Homo sapiens, UniProt Q8TD19)	104
Mitogen-activated protein kinase kinase kinase 2 (MAP3K2, Homo sapiens, UniProt Q9Y2U5)	113
Proto-oncogene tyrosine-protein kinase receptor Ret (RET, Homo sapiens, UniProt P07949)	89.1
Proto-oncogene tyrosine-protein kinase ROS (ROS1, Homo sapiens, UniProt P08922)	98
STE20-like serine/threonine-protein kinase (SLK, Homo sapiens, UniProt Q9H2G2)	76.4

Sample 2
Compound: COc1cc(C(=O)OCCCN2CCCN(CCCOC(=O)c3cc(OC)c(OC)c(OC)c3)CC2)cc(OC)c1OC
assay	system	setting	paw withdrawal frequency
von Frey, 0.4 g filament	mouse, CFA inflammatory pain	intraplantar, baseline before CFA	0% and 10% and 20%
von Frey, 0.4 g filament	mouse, CFA inflammatory pain	intravenous, dose not given, 1 h post-dose, third injection, day 5	80% and 90% and 70%
von Frey test	mouse, STZ diabetic neuropathy	subcutaneous, 30 mg/kg, second of three doses, 24 h	0.05 fraction of stimuli and 0.29 fraction of stimuli and 0.03 fraction of stimuli and 0.36 fraction of stimuli and 0.32 fraction of stimuli
von Frey, 0.4 g filament	mouse, CFA inflammatory pain	intraplantar, after CFA, before dosing	90% and 100%
von Frey test	mouse, STZ diabetic neuropathy	subcutaneous, 30 mg/kg, second of three doses, 3 h	0.29 fraction of stimuli and 0.11 fraction of stimuli and 0.1 fraction of stimuli

Sample 3 — species: human; medium: microsomes or S9; tested at: 2 µM; time: 0.5 h
SMILES	remaining compound
CCOc1ccc(OCC)c(NC(=O)c2cc(S(=O)(=O)N3CCCCC3)c[nH]2)c1	22.1%
CC(NNC(=O)c1ccccc1Br)C(=O)Nc1sccc1C#N (stereo not drawn)	57.4%
O=c1ccc2cnc(N[C@H]3CC[C@H](O)CC3)nc2n1C1CCCCC1	44.8%
COc1ccc(-c2oc3cc(OC)c(OC)c(OC)c3c(=O)c2OC)cc1OC	27.8%
O=C(Nc1ccc2c(c1)COC2=O)c1ccc(Cl)c(Cl)c1	> 99%
COc1cc(=O)[nH]cc1C(=O)N1CCN(c2nc(C)cs2)C(C)C1 (stereo not drawn)	95.2%
Cc1cc2n(n1)CC(CNC(C)COc1ccc(F)cc1F)CN2 (stereo not drawn)	> 100%
O=C1NCC2C1CCCN2C(=O)c1cnn(-c2ccc(F)cc2)n1 (stereo not drawn)	12.8%
N#Cc1cccc(COc2cccnc2Nc2nc3cc(F)ccc3[nH]2)c1	32.5%

Sample 4
Structure (SMILES): C[C@H](NC(=O)Nc1cc2[nH]ncc2c(CO)n1)c1ccccn1
GSK3B: Glycogen synthase kinase-3 beta (GSK3B, Homo sapiens, UniProt P49841)
UniProt P49841, sequence (whole entry, looked up): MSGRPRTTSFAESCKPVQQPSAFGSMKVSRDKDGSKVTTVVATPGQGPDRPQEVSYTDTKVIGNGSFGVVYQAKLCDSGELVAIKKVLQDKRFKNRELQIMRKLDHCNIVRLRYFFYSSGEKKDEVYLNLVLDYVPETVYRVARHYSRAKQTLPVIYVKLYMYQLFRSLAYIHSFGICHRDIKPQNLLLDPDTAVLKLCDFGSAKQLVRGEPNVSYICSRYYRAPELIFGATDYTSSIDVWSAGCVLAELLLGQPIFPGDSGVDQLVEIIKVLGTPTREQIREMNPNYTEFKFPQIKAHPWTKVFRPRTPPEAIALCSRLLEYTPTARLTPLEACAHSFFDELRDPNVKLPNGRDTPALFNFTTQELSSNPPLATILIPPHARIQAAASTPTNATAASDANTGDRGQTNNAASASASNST
target	assay	system	pEC50
Mitogen-activated protein kinase 3 (MAPK3, Homo sapiens, UniProt P27361)	target engagement in cells, BRET	–	5.17
GSK3B	target engagement, NanoBRET	–	< 4.30
GSK3B	target engagement in cells, BRET	–	< 4.30
Mitogen-activated protein kinase 1 (MAPK1, Homo sapiens, UniProt P28482)	target engagement, NanoBRET	live cells	4.63 and 4.92 and 4.73

Sample 5 — organism: Sarcocystis neurona; read-out: parasite growth; tested at: 10 µM; reference: untreated
SMILES	log2 fold change
CN1C(=O)CC[C@H]1c1cccnc1	0.3
NS(=O)(=O)c1cc2c(cc1C(F)(F)F)NC(Cc1ccccc1)NS2(=O)=O (stereo not drawn)	0.28
Cl.NC1CCN(c2cccc(Cl)n2)CC1	0.26
CCC1=C[C@@H]2CN(C1)Cc1c([nH]c3ccccc13)[C@@](C(=O)OC)(c1cc3c(cc1OC)N(C)[C@H]1[C@@](O)(C(=O)OC)[C@H](OC(C)=O)[C@]4(CC)C=CCN5CC[C@]31[C@@H]54)C2.O=C(O)C(O)C(O)C(=O)O.O=C(O)C(O)C(O)C(=O)O	-0.23
C[C@]12CCC(=O)C=C1CC[C@@H]1[C@@H]2CC[C@@]2(C)[C@H]1CC[C@]2(O)C(=O)CO	-0.32
CC1(C)S[C@@H]2[C@H](NC(=O)Cc3ccccc3)C(=O)N2[C@H]1C(=O)[O-].[K+]	0.38
CC(=O)CCCCn1cnc2c1c(=O)n(C)c(=O)n2C	0.26
Cl.Nc1nc2ccc(OC(F)(F)F)cc2s1	1.81
C[C@]12CCC(=O)C=C1CC[C@@H]1[C@@H]2C(=O)C[C@@]2(C)[C@H]1CC[C@]2(O)C(=O)CO	-0.0554

Some of these lines once more (sample 1):
target	remaining activity [%]
Homeodomain-interacting protein kinase 3 (HIPK3, Homo sapiens, UniProt Q9H422)	85.3
Rho-associated protein kinase 2 (ROCK2, Homo sapiens, UniProt O75116)	96
Mitogen-activated protein kinase kinase kinase 8 (MAP3K8, Homo sapiens, UniProt P41279)	90.1
Calcium/calmodulin-dependent protein kinase type 1G (CAMK1G, Homo sapiens, UniProt Q96NX5)	97.1
